Published values from different studies.
“And” joins repeats or separate records; there may be more than shown. Numbers after ± are the reported error.
uncharacterized protein: uncharacterized protein (Anopheles coluzzii, UniProt A0A6E8VQK1)
PDPK1: 3-phosphoinositide-dependent protein kinase 1 (PDPK1, Homo sapiens, UniProt O15530)
UniProt P07949, sequence (whole entry, unmodified, looked up): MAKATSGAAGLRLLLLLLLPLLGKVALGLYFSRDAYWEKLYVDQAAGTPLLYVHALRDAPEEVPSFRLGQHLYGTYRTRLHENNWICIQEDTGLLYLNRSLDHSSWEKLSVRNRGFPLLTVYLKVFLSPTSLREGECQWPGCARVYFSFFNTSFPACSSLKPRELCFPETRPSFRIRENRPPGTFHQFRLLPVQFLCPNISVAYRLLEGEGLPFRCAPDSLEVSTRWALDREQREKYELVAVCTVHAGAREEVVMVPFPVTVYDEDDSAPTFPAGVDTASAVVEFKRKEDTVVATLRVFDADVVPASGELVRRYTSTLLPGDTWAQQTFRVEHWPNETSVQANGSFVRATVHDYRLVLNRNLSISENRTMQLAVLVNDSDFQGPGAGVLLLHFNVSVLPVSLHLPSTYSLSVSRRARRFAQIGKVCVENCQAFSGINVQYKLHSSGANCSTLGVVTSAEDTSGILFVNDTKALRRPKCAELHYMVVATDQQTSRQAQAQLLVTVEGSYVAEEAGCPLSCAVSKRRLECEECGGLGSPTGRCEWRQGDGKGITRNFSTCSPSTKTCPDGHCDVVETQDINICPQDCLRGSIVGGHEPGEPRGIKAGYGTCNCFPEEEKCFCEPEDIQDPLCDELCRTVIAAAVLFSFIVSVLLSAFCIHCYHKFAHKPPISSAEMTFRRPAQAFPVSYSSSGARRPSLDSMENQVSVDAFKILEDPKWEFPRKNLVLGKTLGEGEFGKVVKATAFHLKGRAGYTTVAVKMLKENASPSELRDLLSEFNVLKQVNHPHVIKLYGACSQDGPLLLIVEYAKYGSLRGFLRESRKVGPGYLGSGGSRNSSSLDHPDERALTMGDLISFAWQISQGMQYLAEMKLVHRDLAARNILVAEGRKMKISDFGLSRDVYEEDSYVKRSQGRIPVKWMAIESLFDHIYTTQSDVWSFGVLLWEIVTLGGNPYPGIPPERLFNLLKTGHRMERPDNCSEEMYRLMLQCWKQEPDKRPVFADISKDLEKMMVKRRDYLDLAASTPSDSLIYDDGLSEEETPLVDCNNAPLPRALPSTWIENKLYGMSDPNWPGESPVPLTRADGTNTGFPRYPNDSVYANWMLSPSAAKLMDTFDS
UniProt P02716, sequence (whole entry, unmodified, looked up): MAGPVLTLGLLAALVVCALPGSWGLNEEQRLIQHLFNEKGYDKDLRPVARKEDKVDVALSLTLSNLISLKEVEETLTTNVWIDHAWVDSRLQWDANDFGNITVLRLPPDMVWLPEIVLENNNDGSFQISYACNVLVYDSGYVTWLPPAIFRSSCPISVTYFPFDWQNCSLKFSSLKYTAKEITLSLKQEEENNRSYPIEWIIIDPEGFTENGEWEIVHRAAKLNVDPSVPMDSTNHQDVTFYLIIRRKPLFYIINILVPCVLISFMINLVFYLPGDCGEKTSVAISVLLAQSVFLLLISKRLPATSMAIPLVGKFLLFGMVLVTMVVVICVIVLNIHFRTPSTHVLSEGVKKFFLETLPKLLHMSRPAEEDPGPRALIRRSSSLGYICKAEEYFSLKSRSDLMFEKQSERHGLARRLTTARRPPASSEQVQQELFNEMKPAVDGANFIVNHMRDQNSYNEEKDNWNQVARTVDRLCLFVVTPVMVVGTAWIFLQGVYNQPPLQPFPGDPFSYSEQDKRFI
UniProt O15530, sequence (whole entry, looked up): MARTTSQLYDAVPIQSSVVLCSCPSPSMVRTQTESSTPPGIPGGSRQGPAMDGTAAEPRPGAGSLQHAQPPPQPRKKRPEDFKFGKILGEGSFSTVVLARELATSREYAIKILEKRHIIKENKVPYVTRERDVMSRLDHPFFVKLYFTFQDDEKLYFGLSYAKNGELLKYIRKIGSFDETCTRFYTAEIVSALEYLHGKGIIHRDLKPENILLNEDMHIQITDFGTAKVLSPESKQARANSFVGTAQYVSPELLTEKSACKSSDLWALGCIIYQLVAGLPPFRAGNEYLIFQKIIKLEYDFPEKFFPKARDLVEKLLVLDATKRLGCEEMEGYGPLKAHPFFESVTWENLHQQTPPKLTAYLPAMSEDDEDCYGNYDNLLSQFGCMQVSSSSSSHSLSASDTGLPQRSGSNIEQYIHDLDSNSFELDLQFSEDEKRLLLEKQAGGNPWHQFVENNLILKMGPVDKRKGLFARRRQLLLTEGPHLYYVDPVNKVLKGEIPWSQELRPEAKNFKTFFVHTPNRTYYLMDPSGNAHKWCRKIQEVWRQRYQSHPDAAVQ
UniProt P20782, sequence (whole entry, unmodified, looked up): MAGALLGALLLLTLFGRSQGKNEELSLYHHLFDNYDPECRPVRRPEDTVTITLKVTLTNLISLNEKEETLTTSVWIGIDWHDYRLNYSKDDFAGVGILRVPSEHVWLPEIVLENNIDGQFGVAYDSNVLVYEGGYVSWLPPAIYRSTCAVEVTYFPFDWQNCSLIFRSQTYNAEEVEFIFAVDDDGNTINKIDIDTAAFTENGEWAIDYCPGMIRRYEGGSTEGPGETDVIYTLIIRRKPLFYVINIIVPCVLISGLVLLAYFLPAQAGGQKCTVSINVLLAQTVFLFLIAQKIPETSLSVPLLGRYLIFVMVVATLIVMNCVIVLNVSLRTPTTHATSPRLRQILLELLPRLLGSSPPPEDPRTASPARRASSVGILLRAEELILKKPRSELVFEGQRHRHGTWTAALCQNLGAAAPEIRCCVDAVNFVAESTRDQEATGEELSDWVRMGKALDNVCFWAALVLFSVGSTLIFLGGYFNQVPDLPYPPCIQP
UniProt P04756, sequence (whole entry, unmodified, looked up): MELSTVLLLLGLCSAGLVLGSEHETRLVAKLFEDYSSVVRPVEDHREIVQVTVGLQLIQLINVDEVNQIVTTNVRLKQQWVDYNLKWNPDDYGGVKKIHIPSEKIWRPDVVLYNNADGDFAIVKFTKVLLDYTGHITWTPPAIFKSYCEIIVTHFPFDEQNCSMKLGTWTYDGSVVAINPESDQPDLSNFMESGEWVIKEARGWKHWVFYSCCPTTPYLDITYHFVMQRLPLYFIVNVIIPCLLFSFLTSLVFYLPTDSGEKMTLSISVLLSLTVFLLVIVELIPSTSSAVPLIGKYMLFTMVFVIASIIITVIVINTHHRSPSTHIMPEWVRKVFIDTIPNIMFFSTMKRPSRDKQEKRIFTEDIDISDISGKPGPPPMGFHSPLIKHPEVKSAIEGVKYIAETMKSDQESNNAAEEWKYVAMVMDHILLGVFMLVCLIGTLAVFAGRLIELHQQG
UniProt P11229, sequence (whole entry, looked up): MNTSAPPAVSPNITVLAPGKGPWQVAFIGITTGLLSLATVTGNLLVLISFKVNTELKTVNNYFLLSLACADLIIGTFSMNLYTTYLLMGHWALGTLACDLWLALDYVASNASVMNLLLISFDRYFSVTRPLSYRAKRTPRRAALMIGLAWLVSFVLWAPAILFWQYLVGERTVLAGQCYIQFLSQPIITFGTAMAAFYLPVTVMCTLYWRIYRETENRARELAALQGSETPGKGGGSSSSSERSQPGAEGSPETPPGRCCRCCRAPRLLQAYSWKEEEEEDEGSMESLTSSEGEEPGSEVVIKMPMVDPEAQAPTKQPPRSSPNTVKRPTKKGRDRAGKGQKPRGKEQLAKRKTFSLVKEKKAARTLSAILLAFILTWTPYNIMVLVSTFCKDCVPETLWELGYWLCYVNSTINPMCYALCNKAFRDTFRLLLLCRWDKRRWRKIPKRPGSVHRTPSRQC
UniProt Q8IW41, sequence (whole entry, looked up): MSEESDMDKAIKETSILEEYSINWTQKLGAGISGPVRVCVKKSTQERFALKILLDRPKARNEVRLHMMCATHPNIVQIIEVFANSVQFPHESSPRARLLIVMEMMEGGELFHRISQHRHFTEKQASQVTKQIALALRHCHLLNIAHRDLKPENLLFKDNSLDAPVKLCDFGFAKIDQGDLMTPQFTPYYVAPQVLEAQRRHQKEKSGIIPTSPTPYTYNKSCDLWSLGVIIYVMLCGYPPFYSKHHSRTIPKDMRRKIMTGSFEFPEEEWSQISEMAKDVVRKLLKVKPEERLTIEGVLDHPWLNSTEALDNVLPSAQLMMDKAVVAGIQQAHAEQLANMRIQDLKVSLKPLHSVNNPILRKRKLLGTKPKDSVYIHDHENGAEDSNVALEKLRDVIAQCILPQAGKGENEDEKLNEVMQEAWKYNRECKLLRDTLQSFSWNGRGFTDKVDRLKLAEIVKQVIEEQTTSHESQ
UniProt Q9H3G5, sequence (whole entry, looked up): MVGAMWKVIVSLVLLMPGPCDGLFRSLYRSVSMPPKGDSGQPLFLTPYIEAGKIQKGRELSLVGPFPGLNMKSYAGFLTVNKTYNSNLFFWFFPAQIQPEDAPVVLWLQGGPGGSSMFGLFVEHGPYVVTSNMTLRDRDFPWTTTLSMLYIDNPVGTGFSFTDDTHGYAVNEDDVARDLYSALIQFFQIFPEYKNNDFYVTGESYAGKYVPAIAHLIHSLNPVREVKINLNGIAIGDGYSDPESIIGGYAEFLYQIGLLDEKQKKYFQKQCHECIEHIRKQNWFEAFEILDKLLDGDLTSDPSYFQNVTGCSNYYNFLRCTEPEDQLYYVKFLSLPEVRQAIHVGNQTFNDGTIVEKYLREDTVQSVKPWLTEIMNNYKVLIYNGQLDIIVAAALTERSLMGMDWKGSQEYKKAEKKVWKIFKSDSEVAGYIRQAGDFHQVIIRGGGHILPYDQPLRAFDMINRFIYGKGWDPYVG
UniProt P62136, sequence (whole entry, unmodified, looked up): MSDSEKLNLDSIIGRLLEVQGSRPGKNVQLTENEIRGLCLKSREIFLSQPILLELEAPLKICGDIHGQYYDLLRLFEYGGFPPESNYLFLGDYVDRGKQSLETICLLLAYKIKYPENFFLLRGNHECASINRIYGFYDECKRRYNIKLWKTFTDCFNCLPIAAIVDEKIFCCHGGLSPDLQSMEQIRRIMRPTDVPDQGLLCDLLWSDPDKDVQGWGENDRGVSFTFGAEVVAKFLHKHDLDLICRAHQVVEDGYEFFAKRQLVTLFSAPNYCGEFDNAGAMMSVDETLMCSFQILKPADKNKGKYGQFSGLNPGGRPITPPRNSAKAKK

CNC(=O)Oc1ccccc1OC(C)C
remaining activity (uncharacterized protein; enzyme activity, inhibitor; Sf9 cell homogenate; 0.004651 µM, 0.1667 h, together with: α-naphthyl acetate substrate; relative to: no inhibitor): 99.4%

c1ccc2c(c1)cc1ccc3cccc4ccc2c1c34
agonist response (Ahr (Rattus norvegicus, UniProt P41738); agonist, CALUX reporter; H4IIE; 0.0038 µg/mL): 61.7%

O=C(O)CC(=O)O
fluorescence ratio F+/F- (matB (Rhodopseudomonas palustris, UniProt Q6ND88, C106A/K488A/Q457C/R286C); binding, intrinsic fluorescence; 1 mM, 1 µM matB, 10 mM MgCl2): 0.94

O=C(O)Cc1c[nH]cn1
fraction bound (SLC6A6 (Homo sapiens, UniProt P31641, Y138A); binding, microscale thermophoresis; 43.2 nM, fitted curve; higher = more binding): 0.00025

C[C@H]1CN(c2n[nH]c3nc(N[C@H]4CC[C@H](NS(=O)(=O)CCC(F)(F)F)CC4)ncc23)CCO1
relative abundance (CHEK1 (Homo sapiens, UniProt O14757); inhibitor, Kinobeads competition profiling; 0.16 µM; relative to: vehicle): 1.07

C[N+](C)(C)C
affinity ratio (Chrnd/Chrna1/Chrne (Mus musculus, UniProt P02716+P04756+P20782, G173S/S470W); ligand binding, agonist, single-channel kinetics; chain S; relative to: wild type over mutant): 1.7

C[N+](C)(C)CCOC(N)=O
endplate depolarization response (Chrnd/Chrna1/Chrne (Mus musculus, UniProt P02716+P04756+P20782); mouse end plates; 10 µM, unit not given; relative to: control): 0.132

O=C(Nc1cnccc1Cl)N1CCN(Cc2ccc3c(c2)OC(F)(F)O3)CC1
inhibition (central imidazoline I2 receptor, rat; binding; 50 µM, together with: [3H]idazoxan): 9%

Cc1nn(C)cc1-c1nc2c(N3CCN(Cc4ccc(Cl)cc4)CC3)c(Cl)cnc2[nH]1
remaining binding (RET (Homo sapiens, UniProt P07949, M918T); KINOMEscan; 1 µM; relative to: DMSO control): 2%

CCOC(=O)CC(SP(=O)(OC)OC)C(=O)OCC (centres unmarked)
remaining activity (uncharacterized protein; enzyme activity, inhibitor; Sf9 cell homogenate; 11.47 µM, 0.1667 h, together with: α-naphthyl acetate substrate; relative to: no inhibitor): 2.7%

CN(C(=O)n1cnc(-c2ccc[n+]([O-])c2)c1)C1CCCCC1
inhibition (CCKAR (Homo sapiens, UniProt P32238); radioligand binding; 10 µM, together with: [3H]L-364,718): 4%

[2H]c1c([2H])c([C@]2([2H])CCCN2C(=O)C(C)(C)Oc2ccc3cn[nH]c3c2)c([2H])c([2H])c1C([2H])([2H])[2H]
remaining binding (CDK19 (Homo sapiens, UniProt Q9BWU1); KINOMEscan; 1 µM; relative to: DMSO control): 98%

O=[N+]([O-])c1ccc(OP(=O)(OC2CCCCC2)OC2CCCCC2)cc1
Km (had (Sphingobium sp. TCM1, UniProt A0A077JBW9)): 110 ± 30 µM

COc1ccc(N2C(=O)N(c3c(C)cccc3Cl)Cc3cnc(Nc4ccc(C5CCN(C)CC5)cc4OC)nc32)nc1
inhibition (PDPK1; kinase activity, inhibitor; 0.5 µM, PDK1): 12%

O=C1C=C2C(=CCOC2O)O1 (centres unmarked)
remaining activity (DCLRE1A (Homo sapiens, UniProt Q6PJP8); exonuclease activity, inhibitor, fluorescence HTS; 10 µM, 80 min, together with: 8 nM 5P-FQ substrate): 22.9%

CC(CCn1ccc(-c2ccc(-c3cn(Cc4cccnc4)nn3)cc2)cc1=O)(C(=O)NO)S(C)(=O)=O (centres unmarked)
residence time (UDP-3-O-acyl-N-acetylglucosamine deacetylase (Pseudomonas aeruginosa, UniProt P47205); fluorescence; 37 °C): 121 min and ~120 min

CC(=C\C=C\C(C)=C\[C@H](O)[C@@H](O)C[C@H](C)O)/C=C(C)/C=C/C(=O)O[C@H]1CCCC(=O)O[C@@H]([C@@H](C)C/C(C)=C/[C@@H](C)[C@H](O)C[C@@H](C)O)C/C=C(\C)C[C@@H]1C
FLuc/RLuc ratio (Protein transport protein Sec61 subunit alpha isoform 1 (Homo sapiens, UniProt P61619); Sec61-dependent translocation, inhibitor, refers to: CD4 signal peptide-FLuc reporter; HEK293; concentration not given, 6 h): 0.471

Nc1ncc(-c2nc(N3CCOCC3)nc(N3CCOCC3)n2)c(C(F)F)n1
remaining binding (RET (Homo sapiens, UniProt P07949); KINOMEscan; 10 µM): 100%

CN(CC(=O)O)C(=N)NP(=O)(O)O
kcat (CKMT1A (Homo sapiens, UniProt P12532, E264A); substrate, Kinase-Glo luminescence; pH 7.0, reverse reaction, E226A mutant, together with: second substrate in excess): < 0.0001 s⁻¹

C[C@]12CC[C@H]3[C@@H](CCC4=CC(=O)CC[C@@]43C)[C@@H]1CC[C@@H]2C(=O)CO
k−2 (CYP11B2 (Homo sapiens, UniProt P19099, A320V)): 0.62 ± 0.06 s⁻¹

Cc1cc(N2CCNCC2)nc2ccccc12
Emax (CHRM1 (Homo sapiens, UniProt P11229); ERK1/2 phosphorylation, agonist; CHO cells): < 10%

O=C(c1ccc(Cl)cc1)N1CCN2C(=O)N(OC(=O)N3CCOc4ccccc43)C(=O)C2C1 (centres unmarked)
median ratio (Probable serine carboxypeptidase CPVL (CPVL, Homo sapiens, UniProt Q9H3G5); enzyme activity, inhibitor, MS-based ABPP; SW-620 conditioned medium; 10 µM, 1 h, 37 °C; relative to: compound over DMSO, lower = stronger inhibition): 1.1

O=P(O)(O)OC[C@H]1C[C@](O)(CO)[C@@H](O)[C@H](O)[C@@H]1O
apparent Vmax (2-epi-valiolone synthase (Actinosynnema mirum, UniProt C6WFL3); phosphate release; 50 µM): 1.9 ± 0.2 µM/min

C[C@@H](O)[C@H](NC(=O)c1ccc(-c2ccc(Br)cc2)cc1)C(=O)NO
ΔS of binding (UDP-3-O-acyl-N-acetylglucosamine deacetylase (Pseudomonas aeruginosa, UniProt P47205, C40S); ITC; concentration not given, 298 K): 0.069 kJ/(mol·K)

O=C1CC(C(=O)O)NC(=O)N1 (centres unmarked)
kred (Dihydroorotate dehydrogenase A (fumarate) (pyrDA, Lactococcus lactis subsp. cremoris, UniProt A2RJT9, L71F/V133T); flavin reduction, stopped-flow; Lactococcus lactis; pH 8.5, 4 °C): 0.001 ± 0.0001 s⁻¹

CC[C@@H](C)[C@@H](NC(=O)[C@@H](Cc1ccc(O)cc1)NC(=O)[C@H]1CCCN1C(=O)[C@@H](CCCNC(=N)N)NC(=O)[C@H](N)Cc1c[nH]cn1)C(=O)N[C@H](C)C(=O)N[C@H](Cc1c[nH]cn1)C(=O)N[C@H](CCCNC(=N)N)C(=O)N[C@H](CCCCNC(=O)c1cccc(S(=O)(=O)F)c1)C(=O)N[C@H](Cc1ccc(O)cc1)C(=O)N[C@H](CO)C(=O)N[C@H](Cc1ccccc1)C(N)=O
surface TFRC expression (Transferrin receptor protein 1 (Tfrc, Mus musculus, UniProt Q62351); flow cytometry; B16; 24 h, unit not given; relative to: 0 h): 0.324

COc1cc(Nc2ncc(F)c(Nc3ccc4c(n3)NC(=O)C(C)(C)O4)n2)cc(OC)c1OC
inhibition (PDPK1; KINOMEscan; 10 µM): 78%

COc1cc2c(Oc3ccc4[nH]c(C)cc4c3F)ccnc2cc1OCC1(N)CC1
grade 3 sinus tachycardia (paediatric recurrent refractory sarcoma; 8 mg/kg): 0%

CC[C@H](C)[C@H](NC(=O)CNC(=O)[C@@H](N)CCCCN)C(=O)N[C@@H](CC(C)C)C(=O)N[C@@H](CCCCN)C(=O)N[C@@H](CC(N)=O)C(=O)N[C@@H](CCCNC(=N)N)C(=O)N[C@@H](C)C(=O)N[C@@H](CCCNC(=N)N)C(=O)N[C@@H](CCCNC(=N)N)C(=O)N[C@@H](CCC(=O)O)C(=O)N[C@@H](CCCNC(=N)N)C(=O)N1CCC[C@H]1C(=O)NCC(=O)N[C@@H](CCCCN)C(=O)N[C@@H](CCCNC(=N)N)C(=O)N[C@@H](CCCCN)C(=O)N[C@H](C(=O)N[C@H](C(=O)N[C@H](C(=O)N[C@@H](Cc1c[nH]c2ccccc12)C(=O)N1CCC[C@H]1C(=O)N[C@@H](CCC(=O)O)C(=O)N[C@@H](CCC(=O)O)C(=O)NCC(=O)N[C@@H](CCCCN)C(=O)N[C@@H](CC(C)C)C(=O)N[C@@H](CCCNC(=N)N)C(=O)N[C@@H](CCC(=O)O)C(=O)N[C@@H](Cc1ccc(O)cc1)C(=O)N[C@@H](Cc1ccccc1)C(=O)N[C@@H](Cc1ccc(O)cc1)C(=O)N[C@@H](Cc1ccccc1)C(=O)N[C@@H](CCC(=O)O)C(=O)N[C@@H](CC(C)C)C(=O)N[C@@H](CC(=O)O)C(=O)N[C@@H](CCC(=O)O)C(=O)N[C@H](C(=O)N[C@@H](CCC(=O)O)C(=O)N[C@@H](CCCNC(=N)N)C(=O)N[C@H](C(=O)N[C@@H](CC(N)=O)C(=O)N[C@H](C(=O)O)C(C)C)C(C)C)[C@@H](C)O)[C@@H](C)O)C(C)C)[C@@H](C)O
ΔG of binding (PPP1CA (Homo sapiens, UniProt P62136); ITC; concentration not given, 25 °C, PP1α 7-330): -11.6 ± 0.2 kcal/mol

CC(C)(O/N=C(\C(=O)N[C@@H]1C(=O)N2C(C(=O)[O-])=C(C[N+]3(CCNC(=O)c4ccc(O)c(O)c4Cl)CCCC3)CS[C@H]12)c1csc(N)n1)C(=O)O
fluorescence recovery time (blaNDM-1 (Klebsiella pneumoniae, UniProt C7C422); tryptophan fluorescence, substrate, stopped-flow fluorescence; pH 7.5, 10 °C): 1 s

CN1CCN(c2cc(-c3ccncc3)c(-c3ccc4ccccc4c3)nn2)CC1
activation (FFAR3 (Homo sapiens, UniProt O14843); agonist, FLIPR; 12.5 µM): 6.6%

COc1cc2nccc(Oc3ccc(NC(=O)c4cc5c(n(-c6ccccc6)c4=O)CCCC5=O)nc3)c2cc1OC
selectivity ratio (PDGFRA (Homo sapiens, UniProt P16234); cell viability, CellTiter-Glo; Ba/F3 expressing recombinant kinase; relative to: PDGFRA IC50 over AXL IC50): 41

CC[C@H](C)[C@@H]1NC(=O)[C@@H]2CCCN2C(=O)[C@H](CC(C)C)NC(=O)[C@H](CC(C)C)NC(=O)CNC(=O)[C@@H](NC(=O)[C@@H](NC(=O)[C@H](CC(=O)O)NC(=O)CNC(=O)[C@@H](NC(=O)[C@H](C)NC(=O)CNC(=O)[C@H](CCCCN)NC(=O)[C@H](CC(C)C)NC(=O)[C@H](CC(C)C)NC(=O)[C@H](CCCCN)NC(=O)CNC(=O)[C@@H](NC(=O)[C@@H](N)CC(C)C)C(C)C)C(C)C)C(C)C)CSSC[C@@H](C(=O)O)NC1=O
log2 fold change (RNA-seq, refers to: Il18rap mRNA; mouse traumatic brain injury, frontal cortex and hippocampus; dose not given; relative to: TBI plus compound vs TBI): -3.3

O=C(Nc1cccnn1)N1CCC(=Cc2cccc(Oc3ccc(C(F)(F)F)cn3)c2)CC1
inhibition (MAPKAPK5 (Homo sapiens, UniProt Q8IW41); kinase activity, inhibitor; 50 µM, together with: PRAK peptide substrate): -12%

C/C=C1\C(=O)C[C@H]2[C@@H]3CCC4=CC(=O)CC[C@]4(C)[C@H]3CC[C@]12C
activity (Nuclear receptor subfamily 1 group I member 3 (Homo sapiens, UniProt Q14994); cells; concentration not given): inactive

A few entries again:
c1ccc2c(c1)cc1ccc3cccc4ccc2c1c34
agonist response (Ahr (Rattus norvegicus, UniProt P41738); agonist, CALUX reporter; H4IIE; 0.0038 µg/mL): 61.7%

O=C(O)CC(=O)O
fluorescence ratio F+/F- (matB (Rhodopseudomonas palustris, UniProt Q6ND88, C106A/K488A/Q457C/R286C); binding, intrinsic fluorescence; 1 mM, 1 µM matB, 10 mM MgCl2): 0.94

O=C(O)Cc1c[nH]cn1
fraction bound (SLC6A6 (Homo sapiens, UniProt P31641, Y138A); binding, microscale thermophoresis; 43.2 nM, fitted curve; higher = more binding): 0.00025

C[C@H]1CN(c2n[nH]c3nc(N[C@H]4CC[C@H](NS(=O)(=O)CCC(F)(F)F)CC4)ncc23)CCO1
relative abundance (CHEK1 (Homo sapiens, UniProt O14757); inhibitor, Kinobeads competition profiling; 0.16 µM; relative to: vehicle): 1.07
